Experimental data of several laboratories.
Each line is one published result; not all experiments were run side by side.

SMILES | organism | assay | system | setting | inhibition [%]
COC(=O)c1cc2c(=O)n3ccccc3nc2n1Cc1ccccc1 | Severe acute respiratory syndrome coronavirus 2 | viral replication, inhibitor, qPCR | Vero C1008 | 10 µM | 42.5
N=C(N)NCc1cn([C@@H]2[C@@H](OCCn3cc(COCCOCCOCCn4cc(-c5cc(OCCOCCO)c(C#Cc6cc(OCCOCCO)c(C#Cc7cc(OCCOCCO)c(-c8cn(CCOCCOCCOCc9cn(CCO[C@H]%10O[C@H](CO)[C@@H](O)[C@H](O)[C@@H]%10n%10cc(CNC(=N)N)nn%10)nn9)nn8)cc7OCCOCCO)cc6OCCOCCO)cc5OCCOCCO)nn4)nn3)O[C@H](CO)[C@@H](O)[C@@H]2O)nn1.O=CO.O=CO | rVSV-luc pseudotyped with SARS-CoV-2 S | L-SIGN-mediated trans-infection | Jurkat expressing L-SIGN | 5 µM | 94.6
CC(C)CC(C(=O)N1CC2(CC1C#N)C(=O)Nc1ccccc12)N(C)C(=O)c1cc2c(F)cc(F)c(F)c2[nH]1 (stereo not shown) | pangolin coronavirus | viral replication |  | 1 µM | 100
CC(C)C1=C[C@@]23CC[C@@H]4[C@](C)(CCC[C@@]4(C)C(=O)OCC#CCN4CCCC4)[C@H]2C[C@@H]1[C@H]1C(=O)CCC(=O)[C@H]13 | SARS-CoV-2 pseudovirus | pseudovirus infection | BHK-21-hACE2 | 20.0 µM | 16.8
Cc1oc2nc1C(=O)N[C@](C)(C(=O)O)c1nc(c(C)o1)C(=O)N[C@](C)(C(=O)O)c1nc(c(C)o1)C(=O)N[C@]2(C)C(=O)O | SARS-CoV-2 | viral replication | Vero E6, NRC-03-nhCoV | 20 µM | 38
CCN(CC)CC#CCO[C@H]1CC[C@H](O)[C@@H]2[C@H]1[C@H]1C[C@@H]3[C@@]4(C)CCC[C@@](C)(C(=O)OC)[C@@H]4CC[C@@]23C=C1C(C)C | SARS-CoV-2 pseudovirus | pseudovirus infection | BHK-21-hACE2 | 20.0 µM | 39.9
COc1ccc(NC(=O)c2ccc(-c3ccc(C(=N)N)cc3C)cc2)cc1N1CCN(C)CC1 | SARS-CoV-2 B.1.351 pseudotyped particles | viral entry | Calu-3 | concentration not given, 48 h | ~50
Cc1ccc(N2CC3CC(C2)N3)cc1C(=O)NC1(c2ccc3c4c(cccc24)C(=O)N3C)CC1 | SARS-CoV-2 | viral replication | Vero C1008, XBB.1 | 12.5 µM | 100
O=[N+]([O-])c1ccc(-n2nc(-c3ccccc3)cc2-c2ccc(F)cc2)c([N+](=O)[O-])c1 | Japanese encephalitis virus | viral replication, measured: viral RNA | SA14-14-2, mice, spleen | ip, 100 mg/kg/day, 120 h | 40.9
CCN(CC)CC#CCOC(=O)[C@]1(C)CCC[C@]2(C)c3ccc(C(C)C)cc3CC[C@@H]12 | SARS-CoV-2 pseudovirus | pseudovirus infection | BHK-21-hACE2 | 20.0 µM | 47.7
Cc1ccc(N2CC(N3CCC(C)(O)CC3)C2)cc1C(=O)NC1(c2ccc3c4c(cccc24)CC3)CC1 | SARS-CoV-2 | viral replication | Vero C1008, Omicron BA.5 | 0.01715 µM | 0
CC(C)C1=C[C@@]23CC[C@@H]4[C@](C)(CCC[C@@]4(C)C(=O)NCC#CCN4CCCNCC4)[C@H]2C[C@@H]1[C@H]1C(=O)OC(=O)[C@H]13 | SARS-CoV-2 pseudovirus | pseudovirus infection | BHK-21-hACE2 | 20.0 µM | 28.3
Cc1ccc(N2CC3CC(C2)N3C)cc1C(=O)NC1(c2ccc3c4c(cccc24)C(=O)N3C)CC1 | Severe acute respiratory syndrome coronavirus 2 | viral replication | Vero C1008 | 1.389 µM | 100
CC(C)c1ccc2c(c1)CC[C@H]1[C@](C)(C(=O)OCC#CCN3CCOCC3)CCC[C@]21C | SARS-CoV-2 pseudovirus | pseudovirus infection | BHK-21-hACE2 | 20.0 µM | 37.8
O=S(=O)(O)c1c2ccccc2c(-c2c3nc(c(-c4c5ccccc5c(S(=O)(=O)O)c5ccccc45)c4ccc([nH]4)c(-c4c5ccccc5c(S(=O)(=O)O)c5ccccc45)c4nc(c(-c5c6ccccc6c(S(=O)(=O)O)c6ccccc56)c5ccc2[nH]5)C=C4)C=C3)c2ccccc12 | Orthopoxvirus vaccinia | viral replication |  | 50 µg/mL, 24 h | 89
Cc1oc2nc1C(=O)N[C@](C)(C(=O)NCCc1ccccc1)c1nc(c(C)o1)C(=O)N[C@](C)(C(=O)NCCc1ccccc1)c1nc(c(C)o1)C(=O)N[C@]2(C)C(=O)NCCc1ccccc1 | SARS-CoV-2 | virucidal activity | Vero E6, NRC-03-nhCoV | 5 µM | 0
CC(C)C1=CC2=C(C=O)C[C@@H]3[C@](C)(CCC[C@@]3(C)C(=O)OCC#CCN3CCCC3)[C@H]2CC1 | SARS-CoV-2 pseudovirus | pseudovirus infection | BHK-21-hACE2 | 20.0 µM | 19.7
Cc1ccc(N2CC(N3CCC(C)(O)CC3)C2)cc1C(=O)NC1(c2ccc3c4c(cccc24)C(=O)N3C)CC1 | SARS-CoV-2 | viral replication | Vero C1008, wild type | 0.1543 µM | 95
CC(C)C1=CC2=CC[C@@H]3[C@](C)(CCC[C@@]3(C)C(=O)OCC#CCN3CCCC3)[C@H]2CC1 | SARS-CoV-2 pseudovirus | pseudovirus infection | BHK-21-hACE2 | 20.0 µM | > 60
O=C(C=Cc1ccc(O)c(O)c1)OC1CC(O)(C(=O)O)CC(OC(=O)C=Cc2ccc(O)c(O)c2)C1O (stereo not shown) | Severe acute respiratory syndrome coronavirus 2 | cytopathic effect | Vero C1008 | 0.7812 µM | 0
O=[N+]([O-])c1ccc(-n2nc(-c3ccc(F)cc3)cc2-c2ccc(F)cc2)c([N+](=O)[O-])c1 | Japanese encephalitis virus | viral replication, measured: viral RNA | SA14-14-2, mice, brain | ip, 100 mg/kg/day, 120 h | 43.7
Cc1oc2nc1C(=O)N[C@](C)(C(=O)OC(C)C)c1nc(c(C)o1)C(=O)N[C@](C)(C(=O)OC(C)C)c1nc(c(C)o1)C(=O)N[C@]2(C)C(=O)OC(C)C | SARS-CoV-2 | virucidal activity | Vero E6, NRC-03-nhCoV | 10 µM | 18

A few entries again:
SMILES | organism | assay | system | setting | inhibition [%]
N=C(N)NCc1cn([C@@H]2[C@@H](OCCn3cc(COCCOCCOCCn4cc(-c5cc(OCCOCCO)c(C#Cc6cc(OCCOCCO)c(C#Cc7cc(OCCOCCO)c(-c8cn(CCOCCOCCOCc9cn(CCO[C@H]%10O[C@H](CO)[C@@H](O)[C@H](O)[C@@H]%10n%10cc(CNC(=N)N)nn%10)nn9)nn8)cc7OCCOCCO)cc6OCCOCCO)cc5OCCOCCO)nn4)nn3)O[C@H](CO)[C@@H](O)[C@@H]2O)nn1.O=CO.O=CO | rVSV-luc pseudotyped with SARS-CoV-2 S | L-SIGN-mediated trans-infection | Jurkat expressing L-SIGN | 5 µM | 94.6
CC(C)CC(C(=O)N1CC2(CC1C#N)C(=O)Nc1ccccc12)N(C)C(=O)c1cc2c(F)cc(F)c(F)c2[nH]1 (stereo not shown) | pangolin coronavirus | viral replication |  | 1 µM | 100
